# Assay results collected from several papers.
# Several values in a cell are separate wells, animals, samples, runs or records. ± marks the error that the study gave.
# Alpha-amylase: Alpha-amylase (Bos taurus, UniProt Q3MHH8)
# FFAR4: Free fatty acid receptor 4 (FFAR4, Homo sapiens, UniProt Q5NUL3)
# UniProt Q5NUL3, sequence (whole entry, looked up): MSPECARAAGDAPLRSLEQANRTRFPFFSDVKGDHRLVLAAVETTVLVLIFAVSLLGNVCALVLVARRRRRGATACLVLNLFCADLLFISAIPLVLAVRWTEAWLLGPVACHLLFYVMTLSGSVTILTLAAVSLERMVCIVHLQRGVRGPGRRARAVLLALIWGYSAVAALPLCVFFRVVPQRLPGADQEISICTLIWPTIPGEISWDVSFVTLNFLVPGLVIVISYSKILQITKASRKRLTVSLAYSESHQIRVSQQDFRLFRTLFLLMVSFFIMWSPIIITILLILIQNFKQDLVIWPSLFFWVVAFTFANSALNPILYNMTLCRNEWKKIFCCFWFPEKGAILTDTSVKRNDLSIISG
# Trypanothione synthetase: Trypanothione synthetase (Trypanosoma brucei brucei, UniProt Q8IEX1)
# UniProt Q16853, sequence (whole entry, looked up): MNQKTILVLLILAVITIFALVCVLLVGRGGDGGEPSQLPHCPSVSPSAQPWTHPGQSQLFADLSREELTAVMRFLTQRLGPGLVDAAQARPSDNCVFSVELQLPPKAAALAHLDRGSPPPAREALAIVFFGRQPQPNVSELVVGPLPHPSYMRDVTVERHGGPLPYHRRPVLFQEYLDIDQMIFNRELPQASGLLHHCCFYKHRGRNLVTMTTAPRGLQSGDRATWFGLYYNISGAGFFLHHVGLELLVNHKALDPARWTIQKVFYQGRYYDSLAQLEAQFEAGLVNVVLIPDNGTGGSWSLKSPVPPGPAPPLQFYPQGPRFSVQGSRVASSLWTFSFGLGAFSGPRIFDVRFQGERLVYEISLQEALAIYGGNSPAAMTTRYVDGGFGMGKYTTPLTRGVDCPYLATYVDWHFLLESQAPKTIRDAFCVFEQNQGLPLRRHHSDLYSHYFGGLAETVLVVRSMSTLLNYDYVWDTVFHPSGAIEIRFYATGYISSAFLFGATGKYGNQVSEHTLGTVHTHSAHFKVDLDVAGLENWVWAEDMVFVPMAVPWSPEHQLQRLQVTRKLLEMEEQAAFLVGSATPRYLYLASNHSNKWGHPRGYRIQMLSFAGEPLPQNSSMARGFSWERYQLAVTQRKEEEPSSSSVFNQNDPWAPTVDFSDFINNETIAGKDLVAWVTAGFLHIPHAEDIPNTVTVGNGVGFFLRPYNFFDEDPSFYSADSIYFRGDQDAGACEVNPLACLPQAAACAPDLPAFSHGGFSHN
# UniProt P61073, sequence (whole entry, looked up): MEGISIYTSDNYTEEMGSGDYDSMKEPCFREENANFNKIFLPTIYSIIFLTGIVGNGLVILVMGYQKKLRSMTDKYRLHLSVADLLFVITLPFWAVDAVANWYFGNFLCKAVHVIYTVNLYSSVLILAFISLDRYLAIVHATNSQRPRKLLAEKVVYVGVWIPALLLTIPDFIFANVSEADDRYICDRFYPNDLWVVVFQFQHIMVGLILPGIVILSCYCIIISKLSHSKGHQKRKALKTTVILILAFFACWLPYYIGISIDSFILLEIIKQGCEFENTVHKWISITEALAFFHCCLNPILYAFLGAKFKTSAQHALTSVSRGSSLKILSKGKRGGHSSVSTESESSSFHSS
# UniProt O60658, sequence (whole entry, looked up): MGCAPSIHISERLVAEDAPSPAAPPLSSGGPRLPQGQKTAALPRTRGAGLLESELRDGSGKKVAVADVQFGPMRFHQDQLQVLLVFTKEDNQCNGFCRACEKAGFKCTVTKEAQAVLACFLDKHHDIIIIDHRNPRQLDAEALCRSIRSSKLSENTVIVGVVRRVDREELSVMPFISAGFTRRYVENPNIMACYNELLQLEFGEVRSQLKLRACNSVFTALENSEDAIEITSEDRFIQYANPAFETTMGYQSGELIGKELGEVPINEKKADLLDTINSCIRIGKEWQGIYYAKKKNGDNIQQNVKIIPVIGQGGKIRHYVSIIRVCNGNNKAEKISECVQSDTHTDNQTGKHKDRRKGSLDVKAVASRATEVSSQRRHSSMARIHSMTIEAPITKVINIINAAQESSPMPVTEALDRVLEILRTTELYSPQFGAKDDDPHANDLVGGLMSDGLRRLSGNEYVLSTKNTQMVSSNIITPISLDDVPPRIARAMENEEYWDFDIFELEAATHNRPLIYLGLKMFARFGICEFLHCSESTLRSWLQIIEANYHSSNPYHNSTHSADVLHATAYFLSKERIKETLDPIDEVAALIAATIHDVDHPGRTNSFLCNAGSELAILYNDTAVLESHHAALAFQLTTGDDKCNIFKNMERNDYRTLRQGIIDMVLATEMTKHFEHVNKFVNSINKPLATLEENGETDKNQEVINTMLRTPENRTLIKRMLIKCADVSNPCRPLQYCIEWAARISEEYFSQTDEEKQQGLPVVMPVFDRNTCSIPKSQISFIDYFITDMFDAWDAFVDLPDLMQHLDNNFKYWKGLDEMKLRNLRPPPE
# UniProt Q5BJF2, sequence (whole entry, looked up): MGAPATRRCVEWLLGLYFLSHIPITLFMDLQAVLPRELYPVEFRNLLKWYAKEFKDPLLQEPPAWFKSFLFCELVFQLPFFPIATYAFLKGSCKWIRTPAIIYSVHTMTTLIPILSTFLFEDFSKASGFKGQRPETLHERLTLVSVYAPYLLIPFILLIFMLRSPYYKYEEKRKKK
# UniProt Q06187, sequence (whole entry, looked up): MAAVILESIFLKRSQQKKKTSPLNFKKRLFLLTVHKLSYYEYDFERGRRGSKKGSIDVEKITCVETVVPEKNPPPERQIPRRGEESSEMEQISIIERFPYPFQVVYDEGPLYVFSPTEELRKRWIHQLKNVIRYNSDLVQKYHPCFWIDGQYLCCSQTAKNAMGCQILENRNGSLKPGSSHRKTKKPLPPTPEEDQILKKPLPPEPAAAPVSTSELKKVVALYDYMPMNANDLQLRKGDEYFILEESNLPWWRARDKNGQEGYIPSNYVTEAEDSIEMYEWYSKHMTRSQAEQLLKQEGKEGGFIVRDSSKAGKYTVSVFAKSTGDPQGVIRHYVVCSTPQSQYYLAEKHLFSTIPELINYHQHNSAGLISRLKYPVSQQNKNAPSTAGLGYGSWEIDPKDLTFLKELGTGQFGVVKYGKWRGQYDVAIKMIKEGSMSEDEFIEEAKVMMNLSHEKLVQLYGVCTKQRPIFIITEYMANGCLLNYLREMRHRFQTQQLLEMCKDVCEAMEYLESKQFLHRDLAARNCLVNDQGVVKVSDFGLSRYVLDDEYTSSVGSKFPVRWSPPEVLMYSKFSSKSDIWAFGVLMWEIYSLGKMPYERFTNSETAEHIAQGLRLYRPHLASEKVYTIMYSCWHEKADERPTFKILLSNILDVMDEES
# UniProt O60307, sequence (whole entry, looked up): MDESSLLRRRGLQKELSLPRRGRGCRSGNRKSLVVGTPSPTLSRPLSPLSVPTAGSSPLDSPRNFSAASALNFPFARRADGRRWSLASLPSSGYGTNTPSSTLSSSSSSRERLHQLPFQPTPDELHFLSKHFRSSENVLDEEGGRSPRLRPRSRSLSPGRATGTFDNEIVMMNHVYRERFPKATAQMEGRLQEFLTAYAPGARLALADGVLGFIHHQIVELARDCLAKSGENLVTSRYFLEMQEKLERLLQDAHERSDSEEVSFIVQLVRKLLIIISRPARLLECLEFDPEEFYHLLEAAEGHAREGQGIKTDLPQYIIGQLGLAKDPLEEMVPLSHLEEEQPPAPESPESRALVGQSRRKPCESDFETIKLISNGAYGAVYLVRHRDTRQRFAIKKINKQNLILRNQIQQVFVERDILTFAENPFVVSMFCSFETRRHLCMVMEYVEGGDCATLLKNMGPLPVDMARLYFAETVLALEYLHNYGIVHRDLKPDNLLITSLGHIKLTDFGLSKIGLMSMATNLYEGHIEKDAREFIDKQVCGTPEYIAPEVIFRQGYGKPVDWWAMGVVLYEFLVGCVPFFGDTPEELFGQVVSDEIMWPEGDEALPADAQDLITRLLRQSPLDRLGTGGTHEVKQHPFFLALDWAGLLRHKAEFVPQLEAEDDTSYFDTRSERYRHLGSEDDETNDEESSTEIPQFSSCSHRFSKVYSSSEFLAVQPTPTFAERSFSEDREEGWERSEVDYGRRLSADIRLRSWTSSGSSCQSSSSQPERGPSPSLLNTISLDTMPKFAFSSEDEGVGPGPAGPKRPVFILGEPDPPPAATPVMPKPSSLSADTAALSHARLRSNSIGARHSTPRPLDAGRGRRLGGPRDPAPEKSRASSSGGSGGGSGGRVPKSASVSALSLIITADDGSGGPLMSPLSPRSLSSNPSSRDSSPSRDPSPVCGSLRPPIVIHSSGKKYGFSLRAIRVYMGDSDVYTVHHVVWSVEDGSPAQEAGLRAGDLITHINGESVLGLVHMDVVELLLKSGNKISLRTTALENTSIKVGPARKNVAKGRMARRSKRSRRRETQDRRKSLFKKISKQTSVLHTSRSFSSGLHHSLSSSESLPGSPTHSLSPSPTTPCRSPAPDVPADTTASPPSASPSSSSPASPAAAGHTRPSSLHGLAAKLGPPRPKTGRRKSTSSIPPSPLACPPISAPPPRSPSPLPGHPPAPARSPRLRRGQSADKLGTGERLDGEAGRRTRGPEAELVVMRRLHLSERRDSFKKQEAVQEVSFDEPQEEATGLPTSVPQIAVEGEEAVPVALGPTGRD
# UniProt P35367, sequence (whole entry, looked up): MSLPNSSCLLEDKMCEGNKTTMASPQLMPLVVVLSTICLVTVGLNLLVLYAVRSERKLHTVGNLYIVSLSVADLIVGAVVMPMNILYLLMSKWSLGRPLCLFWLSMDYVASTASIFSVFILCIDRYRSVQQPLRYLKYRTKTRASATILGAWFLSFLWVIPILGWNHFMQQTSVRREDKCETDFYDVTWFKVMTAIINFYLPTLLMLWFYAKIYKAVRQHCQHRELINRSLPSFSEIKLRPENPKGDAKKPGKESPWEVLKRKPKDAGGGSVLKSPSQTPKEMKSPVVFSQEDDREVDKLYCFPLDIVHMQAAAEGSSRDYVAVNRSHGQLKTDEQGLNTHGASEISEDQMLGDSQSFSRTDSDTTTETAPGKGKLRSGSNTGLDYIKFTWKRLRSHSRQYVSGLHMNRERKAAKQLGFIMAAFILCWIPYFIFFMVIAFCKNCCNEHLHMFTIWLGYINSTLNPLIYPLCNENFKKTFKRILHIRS
SMILES,target,test,test system,conditions,how to read,inhibition
Cn1cc(-c2cnc3ccc(NC(=O)Nc4ccc(F)c(Br)c4)cc3n2)cn1,"TBK1 (Homo sapiens, UniProt Q9UHD2)","kinase binding, KiNativ profiling, measured: Lys1 peptide",PANC-1 lysate,7.5 µM,,5.5%
Cc1cc(-c2ccnc3[nH]cc(F)c23)cc(F)c1[C@@]1(O)[C@H](C)CN(C(=O)CN)C[C@@H]1C,"ROCK1 (Homo sapiens, UniProt Q13464)","ATP probe binding, KiNativ",HEK293T cell lysate,1 µM,,19.5%
CC1=NOC(=O)C1=NNc1ccc(S(N)(=O)=O)cc1,Alpha-amylase,"enzyme activity, inhibitor, glucose oxidase",,"50 µg/mL, together with: dextrin",,9.4%
Cc1nc(Nc2ncc(C(=O)Nc3c(C)cccc3Cl)s2)cc(N2CC[C@H](O)C2)n1,"LCK (Homo sapiens, UniProt P06239)",,,0.001 µM,,92%
CC1=NCCNC(=O)C1=NNc1ccc(S(N)(=O)=O)cc1,Alpha-amylase,"enzyme activity, inhibitor, glucose oxidase",,"200 µg/mL, together with: dextrin",,14%
CCCCC(CC)CNc1cc(=O)[nH]c(=O)[nH]1 (racemic),FFAR4,"antagonist, β-arrestin recruitment",CHO cells,"10 µM, together with: 4 µM TUG-891",,-13 ± 7%
NNC(=O)CN1C(=O)Cc2c([nH]c3ccc(Br)cc23)-c2ccc(Cl)cc21,Trypanothione synthetase,"enzyme activity, inhibitor, BIOMOL Green",,30 µM,,8.3 ± 5.8%
C[C@H]1[C@H](OC(=O)CCC(=O)O)O[C@@H]2O[C@@]3(C)CC[C@H]4[C@H](C)CC[C@@H]1[C@@]24OO3,"Non-structural polyprotein pORF1, helicase domain (Hepatitis E virus genotype 1, UniProt P33424)","ATPase activity, inhibitor, colorimetric",,"78 µM, together with: ATP 100 µM",,55.3%
O=c1cc(NCc2cccc3ccccc23)[nH]c(=O)[nH]1,FFAR4,"antagonist, β-arrestin recruitment",CHO cells,10 µM,,5 ± 16%
COc1ccc(F)cc1C(=O)NCc1ccc(-c2nn([C@@H](C)C(F)(F)F)c(N)c2C(N)=O)cc1,"BTK (Homo sapiens, UniProt Q06187)","probe binding, competitive chemoproteomics",human PBMCs,0.1 µM,,> 90%
CC1=NN(c2ccc(F)cc2)C(=O)C1=NNc1ccc(S(N)(=O)=O)cc1,Alpha-amylase,"enzyme activity, inhibitor, glucose oxidase",,"10 µg/mL, together with: dextrin",,6.5259 ± 0.00019%
CC(C)c1noc2ncc(C(=O)c3ccccc3O)cc12,"HVCN1 (Homo sapiens, UniProt Q96D96)","ion current, whole-cell patch-clamp",,"10 µM, hHv1",,3.15%
CC1=NN(c2ccc(Cl)cc2)C(=O)C1=NNc1ccc(S(N)(=O)=O)cc1,Alpha-amylase,"enzyme activity, inhibitor, glucose oxidase",,"200 µg/mL, together with: dextrin",,10.4%
COc1cc(C(=O)NS(=O)(=O)c2ccccc2C)ccc1Cc1cn(C)c2ccc(NC(=O)OC3CCCC3)cc12,"Volume-regulated anion channel subunit LRRC8C, part LRRC8A IL1 chimera (LRRC8C, Homo sapiens, UniProt Q8TDW0, I133F)","ion current, inhibitor, whole-cell patch clamp",HCT LRRC8-/- cells,"1 µM, +100 mV",,24.4% and 7.74% and 5.65% and -3.38% and 5.62%
CC1=NNC(=S)NC(=O)C1/N=N/c1ccc(S(N)(=O)=O)cc1 (centres unmarked),Alpha-amylase,"enzyme activity, inhibitor, glucose oxidase",,"500 µg/mL, together with: dextrin",,19.6%
CCN(CC)c1ccc(C2Nc3ccc(C(=O)c4ccccc4)cc3NC3=C2C(=O)CC(C)(C)C3)cc1 (centres unmarked),"benzodiazepine site, rat brain",binding,,10 µM,,22%
Cc1nn(-c2nc3c(F)cc(F)cc3s2)c(O)c1C(c1cccc(C(F)(F)F)c1)c1c(C)nn(-c2nc3c(F)cc(F)cc3s2)c1O,"Cyclic GMP-AMP synthase, catalytic domain; with DNA (CGAS, Homo sapiens, UniProt Q8N884)","cGAS phase separation, inhibitor",,6.25 µM,,47.6%
CCOC(=O)C[n+]1cccc(-c2nn(-c3ccccc3)cc2/C=C(\NC(=O)c2ccccc2)C(=O)NC(CC(N)=O)C(=O)O)c1.[Br-] (centres unmarked),"CXCR4 (Homo sapiens, UniProt P61073)","arrestin recruitment, DiscoverX",,30 µM,reference: control,0% and -0.37%
CN(C(=O)n1cnc(-c2ccc[n+]([O-])c2)c1)C1CCCCC1,"TMEM97 (Homo sapiens, UniProt Q5BJF2)",,,10 µM,,19.5%
O=C(CN1C(=O)Cc2c([nH]c3ccc(Br)cc23)-c2ccc(Cl)cc21)N1CCCCC1,Trypanothione synthetase,"enzyme activity, inhibitor, BIOMOL Green",,30 µM,,19.9 ± 2.5%
CC1=NN(c2cc(Cl)ccc2Cl)C(=O)C1=NNc1ccc(S(N)(=O)=O)cc1,Alpha-amylase,"enzyme activity, inhibitor, glucose oxidase",,"100 µg/mL, together with: dextrin",,18%
CCc1nn(C)c2nc(-c3ccc(C(=O)O)cc3)nc(NCc3ccc(F)cc3)c12,"PDE8A (Homo sapiens, UniProt O60658)",enzyme activity,,"10 µM, together with: [3H]cAMP",,32.9%
O=c1cc(NCCc2ccc(Cl)cc2Cl)[nH]c(=O)[nH]1,FFAR4,"antagonist, β-arrestin recruitment",CHO cells,10 µM,,6 ± 6%
CC[C@]12CCCN3CCc4c([nH]c5ccccc45)[C@]31N(Cc1cn(Cc3ccccc3)nn1)C(=O)C2,"Neuropeptide S receptor, isoform B (NPSR1, Homo sapiens, UniProt Q6W5P4)","beta-arrestin recruitment, antagonist, PathHunter chemiluminescence",,"20 µM, together with: agonist at EC80",,30%
NC/C(=C\F)COc1cccc(Cn2c(=S)[nH]c(=O)c3[nH]cnc32)c1,"AOC3 (Homo sapiens, UniProt Q16853)","H2O2 production, Amplex Red",,"0.3704 µM, recombinant human enzyme",,98.9%
O=C(O)CCCCCCCNc1cc(=O)[nH]c(=O)[nH]1,FFAR4,"antagonist, β-arrestin recruitment",CHO cells,"10 µM, together with: 4 µM TUG-891",,23 ± 7%
O=C(NO)c1ccc(CN2CCCCc3ccccc32)c(F)c1,"HRH1 (Homo sapiens, UniProt P35367)","radioligand binding, radioligand displacement",,"10 µM, mean of replicates",,30.2%
CCCCCNc1cc(=O)[nH]c(=O)[nH]1,FFAR4,"antagonist, β-arrestin recruitment",CHO cells,10 µM,,17 ± 1%
CC[C@H](C)C(=O)O[C@H]1C[C@@H](C)C=C2C=C[C@H](C)[C@H](CC[C@@H]3C[C@@H](O)CC(=O)O3)[C@H]21,"USP51 (Homo sapiens, UniProt Q70EK9)",inhibitor,,"1 µM, 1 h preincubation, together with: Ub-AMC 250 nM",,83%
O=C(O)CCCCCNc1cc(=O)[nH]c(=O)[nH]1,FFAR4,"antagonist, β-arrestin recruitment",CHO cells,10 µM,,16 ± 2%
CCN1CCN(Cc2ccc(NC(=O)c3ccc(C)c(/C=C/c4cnc5[nH]ccc5c4OC)c3)cc2C(F)(F)F)CC1,"MAST3 (Homo sapiens, UniProt O60307)",,A-375,0.5 µM,,-14.6%
O=c1cc(NCCc2ccc(Cl)cc2)[nH]c(=O)[nH]1,FFAR4,"antagonist, β-arrestin recruitment",CHO cells,"10 µM, together with: 4 µM TUG-891",,10 ± 4%
CC[C@@H]1[C@H](F)C(=O)N[C@@H]1COc1nccc2cc(C(N)=O)c(OC)cc12,"TNIK (Homo sapiens, UniProt Q9UKE5)","ATP probe binding, KiNativ profiling, measured: Lys1 probe site",THP-1 cell lysate,0.01 mM,,-2.8%
CC1=NN(c2cccc(C)c2)C(=O)C1=NNc1ccc(S(N)(=O)=O)cc1,Alpha-amylase,"enzyme activity, inhibitor, glucose oxidase",,"50 µg/mL, together with: dextrin",,17.3%
CC(C)(C)c1ccc(CCNc2cc(=O)[nH]c(=O)[nH]2)cc1,FFAR4,"antagonist, β-arrestin recruitment",CHO cells,"10 µM, together with: 4 µM TUG-891",,-8 ± 12%
